Published values collected from several papers.
Parts stem from different laboratories: compare values within a part only.

Sample 1
Target: Sal-like protein 4, full length isoform A (SALL4, Homo sapiens, UniProt Q9UJQ4, residues 1-1053)
Sequence of UniProt Q9UJQ4 (whole entry, looked up): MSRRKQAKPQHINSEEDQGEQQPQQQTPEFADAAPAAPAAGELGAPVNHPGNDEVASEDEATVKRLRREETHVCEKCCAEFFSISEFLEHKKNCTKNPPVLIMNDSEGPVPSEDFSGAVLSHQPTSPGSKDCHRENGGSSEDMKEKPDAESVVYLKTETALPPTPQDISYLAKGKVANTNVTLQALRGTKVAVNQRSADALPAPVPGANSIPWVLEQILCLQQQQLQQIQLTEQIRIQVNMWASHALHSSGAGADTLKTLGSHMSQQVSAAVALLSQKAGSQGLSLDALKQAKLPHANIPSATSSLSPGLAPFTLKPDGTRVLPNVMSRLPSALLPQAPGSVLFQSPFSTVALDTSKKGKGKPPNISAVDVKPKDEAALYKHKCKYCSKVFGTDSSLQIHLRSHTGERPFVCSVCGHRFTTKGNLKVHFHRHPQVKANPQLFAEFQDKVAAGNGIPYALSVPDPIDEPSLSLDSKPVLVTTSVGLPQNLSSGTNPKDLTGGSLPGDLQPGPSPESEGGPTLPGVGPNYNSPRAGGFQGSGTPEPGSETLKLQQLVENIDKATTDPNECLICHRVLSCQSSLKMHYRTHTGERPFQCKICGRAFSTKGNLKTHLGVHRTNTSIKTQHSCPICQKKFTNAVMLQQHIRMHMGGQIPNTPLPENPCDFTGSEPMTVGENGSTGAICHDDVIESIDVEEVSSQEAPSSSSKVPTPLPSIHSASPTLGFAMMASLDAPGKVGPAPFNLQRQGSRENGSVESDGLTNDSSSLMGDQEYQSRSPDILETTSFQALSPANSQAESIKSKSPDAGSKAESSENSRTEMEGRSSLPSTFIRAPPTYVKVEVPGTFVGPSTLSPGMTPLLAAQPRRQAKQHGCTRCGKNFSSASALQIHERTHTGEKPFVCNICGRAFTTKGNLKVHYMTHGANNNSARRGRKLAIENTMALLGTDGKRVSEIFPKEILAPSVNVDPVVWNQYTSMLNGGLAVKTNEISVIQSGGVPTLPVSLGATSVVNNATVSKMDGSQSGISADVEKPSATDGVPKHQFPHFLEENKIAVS
Technique: universal PBM
Molecule type: double-stranded DNA, one strand shown
Sample: in vitro
Tested at: 600 nM
Notes: 8-mer, flanks averaged, mean of replicates
Direction: higher = stronger binding
Strand | E-score
GGCCCGTA | -0.279
AGAATGGC | -0.0464
ACCTCCAA | -0.00462
ACGTGGCG | -0.208
ATACTCCG | -0.0148
AAAATGAA | 0.361
GATTTGTA | 0.184

Sample 2
Target: Interferon regulatory factor 5, full length, phosphomimetic (IRF5, Homo sapiens, UniProt Q13568-2, residues 1-514, S451D/S453D/S456D/S462D)
Technique: protein-binding microarray
Molecule type: double-stranded DNA, one strand shown
Sample: in vitro
Tested at: 940 nM top
Notes: 60-bp whole probe
With: salmon DNA 0.4 mg/ml
Reference: random background probes
Direction: higher = stronger binding
Shared flanks, not repeated: GCCTAGCAC … GTCTTGATTCGCTTGACGCTGCTG
Strand | fitted relative affinity
TCAAATCTTTTTCCCTAACTGTGCTAG | 1.16 z-score
GACGGACTAGGTTTCGGGACGTGCTAG | 3.28 z-score
GACGGTATCGGGTATCGTGACGTGCTA | 4.95 z-score
TCAGGACTGCTTTTCCTTTAGTGCTAG | 0.123 z-score
GACGGACTGCTTATCCTGAGGTGCTAG | -0.25 z-score

Sample 3
Target: Sox, HMG box (Pigoraptor chileana)
Technique: Spec-seq
Molecule type: double-stranded DNA, one strand shown
Sample: in vitro
Tested at: not given
Notes: whole probe, mean of replicates
Reference: not given
Direction: lower = stronger binding
Shared flanks, not repeated: GAGTCGTCTCGTCAGCAC … CCGTAGAGCACTCAGGTC
Residues (chain): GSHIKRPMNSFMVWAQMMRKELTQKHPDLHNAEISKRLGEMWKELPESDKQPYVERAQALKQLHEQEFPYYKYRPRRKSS
Strand | relative binding energy [ln ratio]
AGGGGTT | 0.416
CATTAAG | -0.183
CATACCG | 0.168
CATTTAC | 0.326
CATTGTC | -2.48
ACGCGTT | 0.574

Other studies, line by line
Molecule | target | assay | system | conditions | scale | measurement | value
PhoQ, residues 284 288 289 292 302 303 SSTLSG | PhoP, residues 12 14 15 18 19 SQCLL (Escherichia coli, UniProt P23836) | Sort-seq, measured: YFP reporter | E. coli | PhoQ-PhoP variant library, with: 10 µM Mg2+ | reference: high Mg2+ state, higher = stronger signaling | fold induction | 14.7

For quick reference, copied from above (sample 3):
Strand | relative binding energy [ln ratio]
CATTTAC | 0.326
CATTGTC | -2.48
